Experimental data pooled from the literature.
Each line is one published result; not all experiments were run side by side. ± gives the spread as reported.

SMILES	test	test system	conditions	scale	endpoint	value
C[C@@H]1NC(=O)[C@H](CCCCNC(=O)CO/N=C/C(=O)NCCCC[C@@H]2NC(=O)[C@@H](Cc3ccccc3)NC(=O)[C@H](CC(=O)O)NC(=O)CNC(=O)[C@H](CCCNC(=N)N)NC2=O)NC(=O)CNC(=O)[C@@H]2CCCN2C(=O)[C@H](CCCCNC(=O)CO/N=C/C(=O)NCCCC[C@@H]2NC(=O)[C@@H](Cc3ccccc3)NC(=O)[C@H](CC(=O)O)NC(=O)CNC(=O)[C@H](CCCNC(=N)N)NC2=O)NC(=O)[C@H](CCCCNC(=O)CCNC(=O)CCNC(=O)CCNC(=O)[C@H](CCCCN)NC(=O)[C@H](Cc2ccccc2)NC(=O)CNC(=O)CN2CCCNCCNCCCNCC2)NC(=O)[C@H](CCCCNC(=O)CO/N=C/C(=O)NCCCC[C@@H]2NC(=O)[C@@H](Cc3ccccc3)NC(=O)[C@H](CC(=O)O)NC(=O)CNC(=O)[C@H](CCCNC(=N)N)NC2=O)NC(=O)CNC(=O)[C@@H]2CCCN2C(=O)[C@H](CCCCNC(=O)CO/N=C/C(=O)NCCCC[C@@H]2NC(=O)[C@@H](Cc3ccccc3)NC(=O)[C@H](CC(=O)O)NC(=O)CNC(=O)[C@H](CCCNC(=N)N)NC2=O)NC1=O [copper-64 labelled]	–	normal mice, spleen	intravenous, 0.74 MBq, 3 h post-injection	–	tissue uptake	5.3 ± 0.54 %ID/g
CC(=O)NCC(=O)NCC(=O)N[C@H](C(=O)N[C@@H](Cc1ccc(O)cc1)C(=O)N[C@@H](CO)C(=O)N[C@H]1CSSC[C@@H](C(=O)N[C@@H](CCCNC(=N)N)C(=O)N2CCC[C@H]2C(=O)N[C@@H](CCC(N)=O)C(=O)N[C@@H](CCCNC(=N)N)C(=O)NCC(=O)NCCC(=O)N[C@@H](CCCCNC(=O)CN(CC(=O)NCCCC[C@H](NC(=O)CCNC(=O)CNC(=O)[C@H](CCCNC(=N)N)NC(=O)[C@H](CCC(N)=O)NC(=O)[C@@H]2CCCN2C(=O)[C@H](CCCNC(=N)N)NC(=O)[C@@H]2CSSC[C@H](NC(=O)[C@H](CO)NC(=O)[C@H](Cc3ccc(O)cc3)NC(=O)[C@@H](NC(=O)CNC(=O)CNC(C)=O)[C@@H](C)O)C(=O)N[C@@H](Cc3c[nH]cn3)C(=O)N[C@@H](Cc3ccccc3)C(=O)NCC(=O)N[C@@H](C)C(=O)N[C@@H](CC(C)C)C(=O)N[C@@H]([C@@H](C)O)C(=O)N[C@@H](Cc3c[nH]c4ccccc34)C(=O)N[C@@H](C(C)C)C(=O)N2)C(N)=O)C(=O)CCN)C(N)=O)NC(=O)[C@H](C(C)C)NC(=O)[C@H](Cc2c[nH]c3ccccc23)NC(=O)[C@H]([C@@H](C)O)NC(=O)[C@H](CC(C)C)NC(=O)[C@H](C)NC(=O)CNC(=O)[C@H](Cc2ccccc2)NC(=O)[C@H](Cc2c[nH]cn2)NC1=O)[C@@H](C)O	MSD immunoassay	BALB/c mice, healthy female, serum	subcutaneous, 0.08 mg/kg, 2 h, LLOQ 2.0 ng/mL	–	serum concentration	not detected
COc1cc2c(Oc3ccc4[nH]c(C)cc4c3F)ccnc2cc1OCC1(N)CC1	–	paediatric refractory sarcoma patients	12 mg	–	T-wave abnormality incidence	9.1%
N#Cc1ccc(COc2cccc(C(=O)Nc3ccc4c(c3)B(O)OC4)c2)cc1	PAMPA	–	200 µM, 5 h, pH 7.4	–	membrane retention	14.8%
Nc1nc(=O)n([C@H]2C[C@H](O)[C@@H](CO)O2)cc1F	–	advanced solid tumour patients	added: tetrahydrouridine	–	MTD	134 mg/m²/day
Cn1nc(NS(C)(=O)=O)c2c(Cl)ccc(-n3c([C@H](Cc4cc(F)cc(F)c4)NC(=O)Cn4nc(C(F)F)c5c4C(F)(F)[C@@H]4C[C@H]54)nc4nc(OCCC(F)(F)F)ccc4c3=O)c21	refers to: blood triglycerides increased	human	625 mg, powder in bottle	–	drug-related adverse events	0%
CC(C)c1nc(N(C)S(C)(=O)=O)nc(-c2ccc(F)cc2)c1/C=C/[C@@H](O)C[C@@H](O)CC(=O)O	–	healthy human subjects	oral, dose not given, study CL-0537 safety set	–	incidence of gastrointestinal disorders	10.7%
CC(=O)c1c(C)c2cnc(Nc3ccc(C4CCN(CCS(C)(=O)=O)CC4)cn3)nc2n(C2CCCC2)c1=O	–	human, dose-escalation trial, plasma	oral, 50 mg twice daily, day 1, single dose	–	AUC(0-inf)	770 ng·h/mL
Clc1cc2c(cc1Cl)Oc1c(ccc(Cl)c1Cl)O2	–	whole cow milk	200 nM nominal	–	dose fraction in milk fat	86.6%
COc1ncccc1-c1cnn2ccc(N3CCN(C(=O)OC(C)C)CC3)nc12	–	mouse nerve ligation model, brain	oral, 3 mg/kg, 30 min after last dose, repeat dosing day 4	–	drug concentration	2200 nM
CN(C(=O)n1cnc(-c2ccc[n+]([O-])c2)c1)C1CCCCC1	–	Wistar rat, midbrain	oral, 10 mg/kg, 1 h, single dose	–	concentration	368 ± 40.8 ng/g
C/C(=N\C#N)N(C)Cc1ccc(Cl)nc1	–	test soil	0.12 mg/kg nominal, 0 days	–	measured soil concentration	0.06 mg/kg dry soil
CN1CCN(S(=O)(=O)c2cc([N+](=O)[O-])ccc2N(CCOS(C)(=O)=O)CCOS(C)(=O)=O)CC1	–	naive NSG mice, plasma	intraperitoneal, 5 mg/kg	–	apparent volume Vz/F	1.73 (mg/kg)/(µM)
CCNCCCNC/C=C\CNCCCNCC	–	human, advanced solid tumours	intravenous, dose not given	baseline: patients	drug-related TEAE, respiratory disorders	8.7%

Excerpt of the above:
SMILES	test	test system	conditions	scale	endpoint	value
COc1cc2c(Oc3ccc4[nH]c(C)cc4c3F)ccnc2cc1OCC1(N)CC1	–	paediatric refractory sarcoma patients	12 mg	–	T-wave abnormality incidence	9.1%
N#Cc1ccc(COc2cccc(C(=O)Nc3ccc4c(c3)B(O)OC4)c2)cc1	PAMPA	–	200 µM, 5 h, pH 7.4	–	membrane retention	14.8%
